Experimental data of several laboratories.
Numbered parts are unrelated; each lists some results of a single study. Substitutions count along the parent as printed.
UniProt Q9UQM7, sequence (whole entry, looked up): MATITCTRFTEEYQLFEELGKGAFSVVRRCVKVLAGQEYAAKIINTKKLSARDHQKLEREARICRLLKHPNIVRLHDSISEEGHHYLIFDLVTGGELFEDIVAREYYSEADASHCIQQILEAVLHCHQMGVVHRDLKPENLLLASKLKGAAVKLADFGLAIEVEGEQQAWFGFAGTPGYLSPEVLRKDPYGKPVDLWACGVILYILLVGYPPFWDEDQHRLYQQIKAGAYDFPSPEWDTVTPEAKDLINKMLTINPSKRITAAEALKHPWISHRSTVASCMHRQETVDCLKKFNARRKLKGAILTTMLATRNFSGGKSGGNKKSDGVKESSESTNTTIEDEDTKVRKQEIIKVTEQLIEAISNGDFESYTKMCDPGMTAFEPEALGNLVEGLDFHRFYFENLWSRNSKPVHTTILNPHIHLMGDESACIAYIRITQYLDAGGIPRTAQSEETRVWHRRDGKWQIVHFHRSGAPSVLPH
UniProt P28223, sequence (whole entry, looked up): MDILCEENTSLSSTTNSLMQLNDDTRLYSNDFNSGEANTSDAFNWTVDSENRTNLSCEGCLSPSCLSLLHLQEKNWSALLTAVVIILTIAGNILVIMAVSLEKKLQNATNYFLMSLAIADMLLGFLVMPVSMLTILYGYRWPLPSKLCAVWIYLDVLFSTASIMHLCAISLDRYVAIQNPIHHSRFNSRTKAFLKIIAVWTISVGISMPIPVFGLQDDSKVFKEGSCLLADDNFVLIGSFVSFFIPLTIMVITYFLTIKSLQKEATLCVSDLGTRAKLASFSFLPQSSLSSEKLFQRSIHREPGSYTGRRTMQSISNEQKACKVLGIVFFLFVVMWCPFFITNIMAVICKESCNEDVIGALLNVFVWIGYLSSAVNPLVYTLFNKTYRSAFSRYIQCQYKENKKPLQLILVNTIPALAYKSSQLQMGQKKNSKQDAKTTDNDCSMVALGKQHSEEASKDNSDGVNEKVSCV
UniProt P20309, sequence (whole entry, looked up): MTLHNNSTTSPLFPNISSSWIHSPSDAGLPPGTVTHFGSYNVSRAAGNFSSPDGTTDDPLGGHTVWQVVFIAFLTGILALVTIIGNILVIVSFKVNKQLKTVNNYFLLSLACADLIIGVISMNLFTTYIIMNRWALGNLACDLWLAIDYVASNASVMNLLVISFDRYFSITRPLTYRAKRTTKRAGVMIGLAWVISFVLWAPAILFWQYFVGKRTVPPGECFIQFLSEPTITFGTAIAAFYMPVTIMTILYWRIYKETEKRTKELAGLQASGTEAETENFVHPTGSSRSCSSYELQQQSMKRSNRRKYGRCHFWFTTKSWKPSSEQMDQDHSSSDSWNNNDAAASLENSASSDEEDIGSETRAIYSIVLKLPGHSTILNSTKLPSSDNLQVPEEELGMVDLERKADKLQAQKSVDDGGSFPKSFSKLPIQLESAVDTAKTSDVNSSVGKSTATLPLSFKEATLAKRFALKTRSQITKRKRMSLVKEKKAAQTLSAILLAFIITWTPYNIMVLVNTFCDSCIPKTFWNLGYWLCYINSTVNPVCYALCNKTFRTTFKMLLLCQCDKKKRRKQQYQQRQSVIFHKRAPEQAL
UniProt P41143, sequence (whole entry, looked up): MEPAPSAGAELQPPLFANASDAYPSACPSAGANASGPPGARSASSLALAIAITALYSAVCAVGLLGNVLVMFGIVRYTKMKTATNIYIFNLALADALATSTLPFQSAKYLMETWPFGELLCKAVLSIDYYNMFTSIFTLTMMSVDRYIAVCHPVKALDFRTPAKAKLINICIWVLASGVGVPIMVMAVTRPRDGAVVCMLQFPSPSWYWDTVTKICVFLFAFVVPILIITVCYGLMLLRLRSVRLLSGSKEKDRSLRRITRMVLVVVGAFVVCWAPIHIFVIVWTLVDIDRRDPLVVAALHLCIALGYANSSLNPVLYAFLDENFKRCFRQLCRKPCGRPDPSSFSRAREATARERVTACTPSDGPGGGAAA
UniProt P35372, sequence (whole entry, looked up): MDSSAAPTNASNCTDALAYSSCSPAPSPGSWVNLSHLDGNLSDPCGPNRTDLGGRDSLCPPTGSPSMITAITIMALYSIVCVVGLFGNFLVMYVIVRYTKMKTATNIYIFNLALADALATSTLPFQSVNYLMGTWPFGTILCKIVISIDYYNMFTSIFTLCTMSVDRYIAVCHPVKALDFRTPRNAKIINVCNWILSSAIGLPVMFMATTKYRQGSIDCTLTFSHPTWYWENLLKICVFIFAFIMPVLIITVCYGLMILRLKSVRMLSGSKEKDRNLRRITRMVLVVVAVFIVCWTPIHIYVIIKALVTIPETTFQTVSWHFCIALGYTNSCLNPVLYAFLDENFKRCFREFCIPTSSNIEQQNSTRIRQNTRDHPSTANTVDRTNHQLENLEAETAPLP
UniProt P41145, sequence (whole entry, looked up): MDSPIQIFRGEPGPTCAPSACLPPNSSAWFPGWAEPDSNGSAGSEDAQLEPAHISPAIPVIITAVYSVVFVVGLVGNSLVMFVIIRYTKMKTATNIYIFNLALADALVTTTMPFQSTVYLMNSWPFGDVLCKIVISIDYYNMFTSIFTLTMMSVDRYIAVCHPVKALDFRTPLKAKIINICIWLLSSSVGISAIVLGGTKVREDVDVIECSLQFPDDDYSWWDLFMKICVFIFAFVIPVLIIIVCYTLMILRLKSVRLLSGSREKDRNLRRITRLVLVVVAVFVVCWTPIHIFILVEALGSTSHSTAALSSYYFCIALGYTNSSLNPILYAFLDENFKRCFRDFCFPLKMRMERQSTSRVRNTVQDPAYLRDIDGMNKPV
UniProt P08588, sequence (whole entry, looked up): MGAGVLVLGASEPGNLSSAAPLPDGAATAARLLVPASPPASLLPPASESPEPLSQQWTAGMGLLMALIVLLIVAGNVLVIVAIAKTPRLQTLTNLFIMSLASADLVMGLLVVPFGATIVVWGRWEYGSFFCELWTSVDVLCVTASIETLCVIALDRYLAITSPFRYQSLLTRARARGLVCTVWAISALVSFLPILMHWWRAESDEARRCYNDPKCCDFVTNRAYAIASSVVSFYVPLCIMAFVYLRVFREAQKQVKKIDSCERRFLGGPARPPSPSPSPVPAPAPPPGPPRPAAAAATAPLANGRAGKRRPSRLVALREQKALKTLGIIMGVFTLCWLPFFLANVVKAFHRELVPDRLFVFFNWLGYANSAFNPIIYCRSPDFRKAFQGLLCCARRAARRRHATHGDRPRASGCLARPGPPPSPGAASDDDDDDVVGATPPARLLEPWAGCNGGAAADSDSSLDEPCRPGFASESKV
UniProt P11229, sequence (whole entry, looked up): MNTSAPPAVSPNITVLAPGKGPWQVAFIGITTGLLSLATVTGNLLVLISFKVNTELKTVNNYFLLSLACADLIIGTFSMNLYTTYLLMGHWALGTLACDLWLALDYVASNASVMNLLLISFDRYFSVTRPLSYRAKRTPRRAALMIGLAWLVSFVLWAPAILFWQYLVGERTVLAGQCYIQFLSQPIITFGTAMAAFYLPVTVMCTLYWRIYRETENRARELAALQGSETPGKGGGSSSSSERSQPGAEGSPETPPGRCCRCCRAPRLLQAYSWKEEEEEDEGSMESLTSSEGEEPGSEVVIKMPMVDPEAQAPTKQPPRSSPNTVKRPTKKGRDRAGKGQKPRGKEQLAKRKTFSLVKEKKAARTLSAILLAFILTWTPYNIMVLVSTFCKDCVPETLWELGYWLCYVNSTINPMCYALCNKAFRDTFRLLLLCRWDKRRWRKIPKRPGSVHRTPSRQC

Block 1
Target: CCNF, cyclin fold, Cln2 fusion (human)
Method: yeast growth competition, sequencing
Matrix: yeast
Setting: strong parent motif
Baseline: not given
Direction: higher = stronger binding
Measurement: normalised enrichment score
Starting sequence: viral docking peptide; YKVKRRLVFGADD; partner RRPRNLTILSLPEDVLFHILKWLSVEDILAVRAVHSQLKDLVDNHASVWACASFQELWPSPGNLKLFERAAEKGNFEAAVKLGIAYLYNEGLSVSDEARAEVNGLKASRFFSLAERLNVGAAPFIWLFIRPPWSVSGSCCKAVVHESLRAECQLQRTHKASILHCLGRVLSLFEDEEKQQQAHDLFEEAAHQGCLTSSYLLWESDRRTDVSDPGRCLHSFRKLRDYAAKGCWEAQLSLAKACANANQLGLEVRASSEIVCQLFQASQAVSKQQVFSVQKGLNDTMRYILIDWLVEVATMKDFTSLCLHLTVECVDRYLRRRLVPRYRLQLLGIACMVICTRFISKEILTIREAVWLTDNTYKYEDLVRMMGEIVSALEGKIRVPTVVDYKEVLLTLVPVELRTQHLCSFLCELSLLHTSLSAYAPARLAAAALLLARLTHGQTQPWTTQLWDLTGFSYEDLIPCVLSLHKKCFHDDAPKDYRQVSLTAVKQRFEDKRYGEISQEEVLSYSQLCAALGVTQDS
YKVKWRLVFGADD [R5W]: 1.67
YKVKRRLVSGADD [F9S]: 0.847
YKVKRRLVFGHDD [A11H]: 9.14
YKVKRRLVFGAAD [D12A]: 9.46
YKVKRLLVFGADD [R6L]: 8.22
YKVKRRLVGGADD [F9G]: 0.797
YKVLRRLVFGADD [K4L]: 7.37
YKVKRRLVFGFDD [A11F]: 9.13

Block 2
Structure (SMILES): O=C(NNS(=O)(=O)c1ccccc1)c1cc(-c2ccnnc2)ccc1F
Read-out: cell-free assay
Tested at: 10 µM
Measurement: inhibition
CHRM3 (Homo sapiens, UniProt P20309): 13%
HTR2A (Homo sapiens, UniProt P28223): 11.8%
OPRM1 (Homo sapiens, UniProt P35372): 26.1%
OPRD1 (Homo sapiens, UniProt P41143): 7.99%
HTR1A (Homo sapiens, UniProt P08908): 23.1%
OPRK1 (Homo sapiens, UniProt P41145): -5.1%
DRD5 (Homo sapiens, UniProt P21918): 5.79%
CHRM1 (Homo sapiens, UniProt P11229): 43.3%

Further values, each from its own experiment
CCCCCc1cc(O)cc(O)c1 — inhibition (CAMK2A (Homo sapiens, UniProt Q9UQM7); enzyme activity, inhibitor; 10 µM): -39%
NCCc1c[nH]c2ccc(O)cc12 — IC50 (ADRB1 (Homo sapiens, UniProt P08588); antagonist): ≥ 100 µM
Br.COc1ccc2c(c1)[C@]13CCCC[C@@H]1[C@H](C2)N(C)CC3 — log2 fold change (Sarcocystis neurona; parasite growth; 10 µM, second screen; baseline: untreated): 0.43
CN(C)C(=O)Oc1cccc([N+](C)(C)C)c1 — nuclear SOX9 intensity (mouse MPNST tumor cells; high-content immunofluorescence imaging, item: nuclear SOX9; 10 µM, 12 h, mean of 2 replicates; baseline: DMSO control, higher = more nuclear SOX9): 101 % of DMSO

Excerpt of the above (block 2):
OPRK1 (Homo sapiens, UniProt P41145): -5.1%
DRD5 (Homo sapiens, UniProt P21918): 5.79%
CHRM1 (Homo sapiens, UniProt P11229): 43.3%
